Measurements pooled from the literature.
Compare with care: the assays were run in different laboratories. “And” joins repeats or separate records; there may be more than shown. ± gives the spread as reported.

`O=C(CCc1ccc(CNC(C(=O)O)C2CCCCC2)cn1)NO` (stereo not drawn) gave a Cmax ratio of 0.73 (healthy male humans, plasma; oral, 20 mg, single dose; baseline: fed over fasted).
`CC(C)(O)c1ncc([S@](N)(=O)=NC(=O)Nc2c3c(cc4c2CCC4)CCC3)s1`: “subjects with TEAEs” 17% (measured: general, administration-site conditions; healthy human; oral, 100 mg, CT formulation, fasted).
With `Cc1c(Cc2ccc(F)c(OC(C)C(=O)O)c2)c2ccc(C(=O)NC(C)c3ccc(C(C)(C)C)cc3)cc2n1CC1CCC1` (stereo not drawn) the half-life was greater than 1 h (human liver microsomes; 1 µM, with: microsomes 1 mg/mL).
`Oc1ccnc(-c2cc(O)ccn2)c1.[Cl-].[Cl-].[Ru+2].c1ccc(-c2ccnc3c2ccc2c(-c4ccccc4)ccnc23)cc1.c1ccc(-c2ccnc3c2ccc2c(-c4ccccc4)ccnc23)cc1`: “singlet oxygen quantum yield” 0.68 (acetonitrile; acidic form).
With `COc1ccccc1CN1CC(C(=O)NCCN(C)CCc2ccccc2)CCC1=O` (stereo not drawn) the translation activity was 158% and 92.9% (Trypanosoma cruzi; reporter mRNA translation, inhibitor, measured: Renilla luciferase mRNA; cell-free extract; concentration not given, test 2; baseline: positive over negative control).
The adverse events of `COCC1CN(C2CCN(c3cc(OC)c(Nc4ncc(Br)c(Nc5ccc6c(c5P(C)(C)=O)OCCO6)n4)cc3C)CC2)C1` is reported as 0% (first-in-human trial; human; oral, 90 mg once daily; treatment-related leading to permanent discontinuation).
`CN1CCCNC(=O)c2cccc(c2)C(=O)NCCCN(C)CCCNc2cccc3c2C(=O)c2cccc(c2C3=O)NCCC1` has a body weight of 26.1 g (mouse xenograft model; dose not given, day 6, group mean).
`COc1ccc(C(N)=O)cn1` — result for “concentration at time”: 15.7 µM (Han Wistar rats, male, plasma; oral, 30 mg/kg, 3.00 h).
With `O=C(Nc1cnccc1-c1ccc([18F])nc1)c1ccnc(NC(=O)C2CC2)c1` the mean SUV was 0.026 (ex vivo gamma counting; GSK-3β transgenic mice, early-stage, caudate nucleus; intravenous, 120 min).
With `COc1ccc([C@@H]2CC(=O)c3c(O)cc(O[C@@H]4O[C@H](CO)[C@@H](O)[C@H](O)[C@H]4O[C@@H]4O[C@@H](C)[C@H](O)[C@@H](O)[C@H]4O)cc3O2)cc1O` the Tmax was 4.02 ± 2.03 h (LC-MS/MS; Sprague-Dawley rat, male, lean, plasma; oral, 100 mg/kg).
For `Cc1cc(-c2ccc(C(=O)[C@@H]3CCCC[C@H]3C(=O)Nc3cnn4c3C(=O)NCC4)cc2)[nH]n1`, “cumulative radioactivity recovery” read 85.3% and 46.8% and 81.2% and 74.2% and 71.8% and 75.6% (human, faeces; oral, 200 mg, 0-144 h; baseline: dose).
With `C=C(NC(=O)c1csc(-c2nc3c(cc2O)-c2nc(cs2)C(=O)NC(C(C)O)C(=O)NC(=C(C)OC)c2nc(cs2)C(=O)NC2c4nc(cs4)C(=O)NC(COC(=O)c4c5c6c(cccc6n4O)COC(=O)C(OC4CC(C)(O)C(N(C)C)C(C)O4)C2OC5)c2nc-3cs2)n1)C(N)=O` (stereo not drawn) the Tmax was 0.08 h (Sprague-Dawley rat, female, plasma; intravenous infusion, 6 mg/kg, multiple doses, day 7).
With `CCN(Cc1ccc(C#CCCO)cc1)CC1CCCN(CCc2cccc(F)c2)C1` (stereo not drawn) the translation activity was 104% and 102% (Trypanosoma cruzi; reporter mRNA translation, inhibitor, measured: Renilla luciferase mRNA; cell-free extract; concentration not given, test 2; baseline: positive over negative control).
The retention time of `CC(C)C[C@@H]1NC(=O)[C@H](CCCCN)NC(=O)CNC(=O)[C@H]2CCCN2C(=O)[C@H](CCCCN)NC(=O)[C@H](CC(C)C)NC(=O)[C@H](CCCCN)NC(=O)C2CCC=CCCC(NC(=O)[C@H](CCCCN)NC1=O)C(=O)N[C@@H](CCCCN)C(=O)NC(C(N)=O)CCC=CCCC(N)C(=O)N[C@@H](CCCCN)C(=O)N2` (stereo partly drawn) is reported as 14.8 min (RP-HPLC C18; hydrophobicity).
For `C=CC(=O)Nc1cc(Nc2nccc(-c3c[nH]c4ccccc34)n2)c(OC)cc1N(C)CCN(C)C`, the recovery was 97.5% (storage stability; human plasma; 2 h, -80 °C, HQC level).
`CCCCN1C(=O)c2cccc3c(NCCCN4CCOCC4)ccc(c23)C1=O` — result for “fluorescence quantum yield”: 0.47 (methanol).
With `C/C(N)=N/C(=N\S(=O)(=O)c1ccc(C(F)(F)F)cc1)N1C[C@H](c2ccccc2)C(c2ccc(Cl)cc2)=N1` the AUC(0-inf) was 21500 ng·h/mL (C57BL/6 mouse, muscle; intravenous, 10 mg/kg).
For `C=CC(=O)N1CCCC(n2c(=O)c3ncccc3n(Cc3ccc(Oc4ccccc4)cc3)c2=O)C1` (stereo not drawn), the compound remaining was 0.4% (metabolic stability; male CD-1 mouse, hepatocytes; 1 µM, 90 min).

Excerpt of the above:
With `CCN(Cc1ccc(C#CCCO)cc1)CC1CCCN(CCc2cccc(F)c2)C1` (stereo not drawn) the translation activity was 104% and 102% (Trypanosoma cruzi; reporter mRNA translation, inhibitor, measured: Renilla luciferase mRNA; cell-free extract; concentration not given, test 2; baseline: positive over negative control).
The retention time of `CC(C)C[C@@H]1NC(=O)[C@H](CCCCN)NC(=O)CNC(=O)[C@H]2CCCN2C(=O)[C@H](CCCCN)NC(=O)[C@H](CC(C)C)NC(=O)[C@H](CCCCN)NC(=O)C2CCC=CCCC(NC(=O)[C@H](CCCCN)NC1=O)C(=O)N[C@@H](CCCCN)C(=O)NC(C(N)=O)CCC=CCCC(N)C(=O)N[C@@H](CCCCN)C(=O)N2` (stereo partly drawn) is reported as 14.8 min (RP-HPLC C18; hydrophobicity).
